Values quoted from earlier work that unrelated publications cite.
Lines come from different studies, so protocols differ. ± marks the error that the study gave. In brackets after ≈: the same amount, converted by molar mass.
CNR1: Cannabinoid receptor 1 (CNR1, Homo sapiens, UniProt P21554)

The chains behind the UniProt entries cited, without tags or fusion partners. Where a name states a change or a piece, a line headed by the entry shows the natural chain unless it says otherwise. Residues count along the entry.
UniProt P21554, whole entry: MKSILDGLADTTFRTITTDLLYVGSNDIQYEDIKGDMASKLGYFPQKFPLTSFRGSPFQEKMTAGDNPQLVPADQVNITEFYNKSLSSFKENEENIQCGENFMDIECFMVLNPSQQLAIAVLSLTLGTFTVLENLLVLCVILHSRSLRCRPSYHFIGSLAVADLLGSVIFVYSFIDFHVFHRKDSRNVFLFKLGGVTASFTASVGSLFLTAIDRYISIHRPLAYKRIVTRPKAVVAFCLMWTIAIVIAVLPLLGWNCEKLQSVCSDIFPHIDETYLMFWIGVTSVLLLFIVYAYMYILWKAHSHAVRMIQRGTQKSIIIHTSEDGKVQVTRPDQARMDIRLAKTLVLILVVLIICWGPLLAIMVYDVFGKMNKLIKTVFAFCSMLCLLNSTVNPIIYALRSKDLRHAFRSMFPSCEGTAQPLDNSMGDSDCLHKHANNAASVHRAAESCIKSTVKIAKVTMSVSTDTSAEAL
UniProt O15379, whole entry, looked up: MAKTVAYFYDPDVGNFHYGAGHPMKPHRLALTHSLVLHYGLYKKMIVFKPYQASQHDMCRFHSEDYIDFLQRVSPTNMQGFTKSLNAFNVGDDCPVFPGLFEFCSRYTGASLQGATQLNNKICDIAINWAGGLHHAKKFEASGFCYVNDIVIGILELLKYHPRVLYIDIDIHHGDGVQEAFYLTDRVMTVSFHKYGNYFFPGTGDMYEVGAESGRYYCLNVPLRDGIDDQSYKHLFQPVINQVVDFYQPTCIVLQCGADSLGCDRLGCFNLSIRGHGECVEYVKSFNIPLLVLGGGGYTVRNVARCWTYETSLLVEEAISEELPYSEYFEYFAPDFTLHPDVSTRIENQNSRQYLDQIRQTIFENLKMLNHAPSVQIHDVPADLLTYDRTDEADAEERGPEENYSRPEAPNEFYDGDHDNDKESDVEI
UniProt O75530, whole entry: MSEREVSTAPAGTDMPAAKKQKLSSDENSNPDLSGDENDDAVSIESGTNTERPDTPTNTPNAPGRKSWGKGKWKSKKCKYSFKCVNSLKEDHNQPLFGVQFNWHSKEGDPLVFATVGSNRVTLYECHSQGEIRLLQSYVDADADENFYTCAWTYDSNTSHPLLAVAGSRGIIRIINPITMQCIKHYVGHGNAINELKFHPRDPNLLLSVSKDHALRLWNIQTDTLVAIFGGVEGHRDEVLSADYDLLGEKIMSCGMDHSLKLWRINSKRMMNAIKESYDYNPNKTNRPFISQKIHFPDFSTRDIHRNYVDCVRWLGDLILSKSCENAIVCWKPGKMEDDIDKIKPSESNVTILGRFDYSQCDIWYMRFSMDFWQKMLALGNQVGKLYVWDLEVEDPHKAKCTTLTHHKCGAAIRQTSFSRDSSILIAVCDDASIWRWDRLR
UniProt P42264, 32-919 limits assumed: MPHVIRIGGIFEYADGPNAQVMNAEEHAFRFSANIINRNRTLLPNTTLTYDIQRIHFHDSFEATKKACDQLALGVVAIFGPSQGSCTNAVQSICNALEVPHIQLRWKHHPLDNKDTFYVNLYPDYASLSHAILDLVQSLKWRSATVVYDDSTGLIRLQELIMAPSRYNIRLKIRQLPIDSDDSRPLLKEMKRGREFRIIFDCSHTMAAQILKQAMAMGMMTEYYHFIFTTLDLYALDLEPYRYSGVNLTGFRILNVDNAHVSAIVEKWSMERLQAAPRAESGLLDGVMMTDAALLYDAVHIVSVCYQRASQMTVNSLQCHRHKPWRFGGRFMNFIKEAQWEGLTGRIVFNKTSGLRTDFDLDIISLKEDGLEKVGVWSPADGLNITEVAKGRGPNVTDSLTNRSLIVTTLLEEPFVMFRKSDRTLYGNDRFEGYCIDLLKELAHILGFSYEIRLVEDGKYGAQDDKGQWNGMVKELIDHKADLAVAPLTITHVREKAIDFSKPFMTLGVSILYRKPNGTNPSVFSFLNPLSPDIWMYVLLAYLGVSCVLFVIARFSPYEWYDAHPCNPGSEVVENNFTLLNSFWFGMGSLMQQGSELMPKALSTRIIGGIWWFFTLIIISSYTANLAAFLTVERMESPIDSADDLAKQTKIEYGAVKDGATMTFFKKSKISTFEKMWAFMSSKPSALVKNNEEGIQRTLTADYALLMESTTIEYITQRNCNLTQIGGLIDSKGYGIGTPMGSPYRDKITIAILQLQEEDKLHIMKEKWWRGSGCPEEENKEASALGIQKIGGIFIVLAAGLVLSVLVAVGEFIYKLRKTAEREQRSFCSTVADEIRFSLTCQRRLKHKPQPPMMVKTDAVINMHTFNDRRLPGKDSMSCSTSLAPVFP
UniProt Q96DB2, whole entry: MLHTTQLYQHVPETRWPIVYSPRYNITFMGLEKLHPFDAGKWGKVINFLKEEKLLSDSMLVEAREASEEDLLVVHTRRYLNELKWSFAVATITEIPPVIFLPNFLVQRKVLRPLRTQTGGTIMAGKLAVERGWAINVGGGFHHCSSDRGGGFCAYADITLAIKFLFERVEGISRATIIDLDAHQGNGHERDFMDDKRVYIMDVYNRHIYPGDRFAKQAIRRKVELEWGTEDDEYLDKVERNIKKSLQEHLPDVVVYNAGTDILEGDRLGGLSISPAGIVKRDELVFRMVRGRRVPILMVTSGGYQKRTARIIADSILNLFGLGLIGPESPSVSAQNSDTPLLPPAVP
UniProt P38398, whole entry, looked up: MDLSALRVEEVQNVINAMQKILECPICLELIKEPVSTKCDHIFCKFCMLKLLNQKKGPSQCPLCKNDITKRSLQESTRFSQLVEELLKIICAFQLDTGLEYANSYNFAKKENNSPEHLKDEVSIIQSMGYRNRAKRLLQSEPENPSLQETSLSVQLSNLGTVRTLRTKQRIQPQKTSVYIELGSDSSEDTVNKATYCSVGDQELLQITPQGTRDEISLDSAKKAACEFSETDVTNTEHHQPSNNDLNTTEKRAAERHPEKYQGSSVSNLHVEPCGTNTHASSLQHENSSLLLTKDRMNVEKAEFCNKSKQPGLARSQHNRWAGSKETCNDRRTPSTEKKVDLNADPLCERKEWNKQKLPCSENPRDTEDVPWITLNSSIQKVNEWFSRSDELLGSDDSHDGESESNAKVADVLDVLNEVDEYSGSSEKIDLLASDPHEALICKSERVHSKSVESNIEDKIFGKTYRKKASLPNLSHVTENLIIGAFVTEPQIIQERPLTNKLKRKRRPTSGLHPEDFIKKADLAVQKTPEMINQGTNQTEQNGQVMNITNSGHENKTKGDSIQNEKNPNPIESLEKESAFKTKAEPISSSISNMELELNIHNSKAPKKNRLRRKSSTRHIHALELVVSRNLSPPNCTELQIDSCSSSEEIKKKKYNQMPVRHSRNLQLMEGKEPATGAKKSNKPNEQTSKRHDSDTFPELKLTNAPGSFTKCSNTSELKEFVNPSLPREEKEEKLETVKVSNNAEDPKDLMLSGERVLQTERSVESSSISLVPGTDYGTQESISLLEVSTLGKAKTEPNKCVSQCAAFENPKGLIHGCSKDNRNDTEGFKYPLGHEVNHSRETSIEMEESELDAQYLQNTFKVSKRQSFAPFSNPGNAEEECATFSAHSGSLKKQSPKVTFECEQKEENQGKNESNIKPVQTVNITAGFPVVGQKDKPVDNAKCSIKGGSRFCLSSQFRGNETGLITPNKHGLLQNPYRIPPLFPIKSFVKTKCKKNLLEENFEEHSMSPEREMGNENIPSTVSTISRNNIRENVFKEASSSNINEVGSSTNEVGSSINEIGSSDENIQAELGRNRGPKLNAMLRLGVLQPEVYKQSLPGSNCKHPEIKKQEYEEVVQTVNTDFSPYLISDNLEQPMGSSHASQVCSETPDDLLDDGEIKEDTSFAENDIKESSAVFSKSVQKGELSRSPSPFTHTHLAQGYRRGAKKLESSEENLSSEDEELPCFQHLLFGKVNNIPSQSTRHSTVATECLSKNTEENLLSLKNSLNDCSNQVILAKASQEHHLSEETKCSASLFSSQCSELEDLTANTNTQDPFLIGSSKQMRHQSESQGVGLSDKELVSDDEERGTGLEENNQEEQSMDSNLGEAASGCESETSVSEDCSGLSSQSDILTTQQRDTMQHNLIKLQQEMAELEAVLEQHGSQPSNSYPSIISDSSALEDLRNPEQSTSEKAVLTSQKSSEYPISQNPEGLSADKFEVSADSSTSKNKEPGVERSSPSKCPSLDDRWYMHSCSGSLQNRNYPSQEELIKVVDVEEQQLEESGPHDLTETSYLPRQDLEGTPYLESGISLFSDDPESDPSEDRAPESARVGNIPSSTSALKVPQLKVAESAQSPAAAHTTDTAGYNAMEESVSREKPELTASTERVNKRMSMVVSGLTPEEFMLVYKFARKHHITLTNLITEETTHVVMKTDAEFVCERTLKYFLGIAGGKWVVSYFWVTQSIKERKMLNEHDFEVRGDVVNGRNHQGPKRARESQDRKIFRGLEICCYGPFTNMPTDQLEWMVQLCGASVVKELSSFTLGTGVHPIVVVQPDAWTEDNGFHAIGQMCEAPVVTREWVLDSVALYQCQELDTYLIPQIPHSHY
UniProt P30542, whole entry: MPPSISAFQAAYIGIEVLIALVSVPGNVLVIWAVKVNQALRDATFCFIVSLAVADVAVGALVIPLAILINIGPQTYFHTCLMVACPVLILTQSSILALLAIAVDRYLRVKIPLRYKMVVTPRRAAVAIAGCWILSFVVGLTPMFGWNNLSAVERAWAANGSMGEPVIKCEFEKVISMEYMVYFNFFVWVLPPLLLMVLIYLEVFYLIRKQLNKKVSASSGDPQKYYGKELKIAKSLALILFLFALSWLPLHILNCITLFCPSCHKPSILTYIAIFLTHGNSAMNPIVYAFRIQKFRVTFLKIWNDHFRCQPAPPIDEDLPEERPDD
UniProt P42575, 170-333 limits assumed: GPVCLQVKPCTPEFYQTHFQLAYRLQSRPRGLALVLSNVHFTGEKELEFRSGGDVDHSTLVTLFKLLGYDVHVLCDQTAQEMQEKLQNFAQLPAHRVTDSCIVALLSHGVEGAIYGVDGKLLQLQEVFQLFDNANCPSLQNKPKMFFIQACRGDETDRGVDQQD
UniProt Q13547, whole entry: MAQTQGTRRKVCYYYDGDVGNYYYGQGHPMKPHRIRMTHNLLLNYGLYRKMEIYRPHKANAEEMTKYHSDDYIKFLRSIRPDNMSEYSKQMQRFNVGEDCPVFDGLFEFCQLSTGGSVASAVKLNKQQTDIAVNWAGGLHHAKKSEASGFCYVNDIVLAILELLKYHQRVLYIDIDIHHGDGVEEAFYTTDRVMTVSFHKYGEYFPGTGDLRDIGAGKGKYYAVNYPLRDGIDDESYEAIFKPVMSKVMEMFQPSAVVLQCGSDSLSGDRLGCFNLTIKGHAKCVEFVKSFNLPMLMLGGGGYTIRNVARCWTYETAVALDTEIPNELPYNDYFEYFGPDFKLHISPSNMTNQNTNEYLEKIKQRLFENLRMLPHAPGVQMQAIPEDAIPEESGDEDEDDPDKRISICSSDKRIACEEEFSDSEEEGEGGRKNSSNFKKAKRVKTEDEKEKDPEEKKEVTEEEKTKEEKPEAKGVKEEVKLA
UniProt Q86U86, 653-763 limits assumed: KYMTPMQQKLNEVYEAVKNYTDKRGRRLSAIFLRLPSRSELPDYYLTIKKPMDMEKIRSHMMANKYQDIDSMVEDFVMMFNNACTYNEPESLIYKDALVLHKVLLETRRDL
UniProt Q9UKV0, whole entry: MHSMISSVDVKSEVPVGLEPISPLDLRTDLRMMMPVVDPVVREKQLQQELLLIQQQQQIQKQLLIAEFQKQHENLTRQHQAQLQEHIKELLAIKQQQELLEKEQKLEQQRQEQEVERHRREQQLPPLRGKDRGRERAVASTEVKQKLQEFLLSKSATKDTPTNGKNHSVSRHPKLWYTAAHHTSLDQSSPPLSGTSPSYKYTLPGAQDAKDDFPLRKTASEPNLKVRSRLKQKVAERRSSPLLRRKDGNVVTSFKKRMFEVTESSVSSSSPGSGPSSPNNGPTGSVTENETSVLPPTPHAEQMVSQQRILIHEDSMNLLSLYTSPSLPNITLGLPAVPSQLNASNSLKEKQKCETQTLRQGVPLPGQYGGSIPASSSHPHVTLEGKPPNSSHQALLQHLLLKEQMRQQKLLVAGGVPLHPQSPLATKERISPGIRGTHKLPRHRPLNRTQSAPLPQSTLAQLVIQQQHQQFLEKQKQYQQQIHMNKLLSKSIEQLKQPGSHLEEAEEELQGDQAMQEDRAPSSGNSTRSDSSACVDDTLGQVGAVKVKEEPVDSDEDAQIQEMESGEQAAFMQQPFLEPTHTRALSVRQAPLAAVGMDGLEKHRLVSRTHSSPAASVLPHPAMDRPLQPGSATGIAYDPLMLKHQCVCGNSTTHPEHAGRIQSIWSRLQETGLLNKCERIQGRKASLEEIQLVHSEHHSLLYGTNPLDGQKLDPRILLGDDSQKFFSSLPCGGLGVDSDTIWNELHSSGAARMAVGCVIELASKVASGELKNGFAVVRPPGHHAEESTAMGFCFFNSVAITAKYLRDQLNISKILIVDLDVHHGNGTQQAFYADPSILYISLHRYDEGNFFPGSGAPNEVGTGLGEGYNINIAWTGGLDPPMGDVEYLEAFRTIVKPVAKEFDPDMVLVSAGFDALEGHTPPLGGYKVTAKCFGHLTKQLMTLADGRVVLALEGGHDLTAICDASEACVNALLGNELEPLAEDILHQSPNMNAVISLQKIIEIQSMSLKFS

O=S(=O)(NC1CCN(c2ncnc3c2nc(-c2ccccc2Cl)n3-c2ccc(Cl)cc2)CC1)c1ccccc1  selectivity ratio (CNR1; binding; baseline: Ki CB2 over Ki CB1): 5100
CC(=O)NCCCC[C@H](NC(=O)CNC(=O)[C@H](CC(C)C)NC(C)=O)C(=O)Nc1ccc2c(C)cc(=O)oc2c1  Km (Histone deacetylase 3 (HDAC3, Homo sapiens, UniProt O15379); substrate): 5.4 µM
CCC(C)NC(=O)CSc1nnc(Nc2ccc(C(C)C)cc2)s1 (stereo not drawn)  kinetic solubility (UV-vis; PBS with 1% DMSO; pH 7.4): 93 µM (≈ 33.9 µg/mL)
CC(C)C[C@H](NC(=O)[C@@H](N)CCCNC(=N)N)C(=O)N[C@@H](CCC(N)=O)C(=O)N[C@@H](C)C(=O)N[C@@H](CCC(N)=O)C(=O)N[C@@H](CCCNC(=N)N)C(=O)N[C@@H](CCCC[N+](C)(C)C)C(=O)N[C@@H](Cc1ccccc1)C(=O)N[C@@H](C)C(=O)N[C@@H](CCC(N)=O)C(=O)N[C@@H](CO)C(=O)N[C@@H](CCC(N)=O)C(=O)N[C@@H](Cc1ccc(O)cc1)C(=O)O  affinity ratio (Polycomb protein EED (EED, Homo sapiens, UniProt O75530); baseline: compound over H3K27me3): 10 fold
CN1CCC(c2c(O)cc(O)c3c2O/C(=C\c2ccc(N4CCN(C)CC4)cc2)C3=O)CC1  IC50 (CDK4/6; kinase activity, inhibitor): 0.022 µM
O=C(O)c1cc([C@H]2CCN[C@@H]2C(=O)O)ccc1O  affinity ratio (Glutamate receptor ionotropic, kainate 3 (Rattus norvegicus, UniProt P42264); binding; baseline: analog lacking 4-hydroxy group, higher = stronger binding): 10 fold
CCCCCCCCCCCCCC(=O)NCCCC[C@H](NC(=O)[C@H](CC(=O)O)NC(=O)[C@@H](NC(=O)[C@H](CCC(=O)O)NC(C)=O)[C@@H](C)O)C(=O)Nc1ccc2c(C)cc(=O)oc2c1  Km (Histone deacetylase 11 (HDAC11, Homo sapiens, UniProt Q96DB2); substrate): 62 µM
CC(=O)N[C@@H](CO)C(=O)N[C@@H](CCCNC(=N)N)C(=O)N[C@@H](CO)C(=O)N[C@H](C(=O)N[C@@H](COP(=O)(O)O)C(=O)N1CCC[C@H]1C(=O)N[C@H](C(=O)N[C@@H](Cc1ccccc1)C(=O)N[C@@H](CC(N)=O)C(=O)N[C@@H](CCCCN)C(N)=O)[C@@H](C)O)[C@@H](C)O  ΔG (Breast cancer type 1 susceptibility protein, BRCT domain (BRCA1, Homo sapiens, UniProt P38398); binding, ITC): -8.7 ± 0.2 kcal/mol
CCC(CC)Nc1nc(Cl)nc2c1ncn2[C@H]1[C@H](O)[C@H](O)[C@@H]2C[C@@H]21  Emax (Adenosine receptor A1 (ADORA1, Homo sapiens, UniProt P30542); cAMP production inhibition, agonist; CHO cells, receptor-transfected; 10 µM, added: forskolin; baseline: reference full agonist): 28.6 ± 3.8%
CC(=O)N[C@H](C(=O)N[C@@H](CC(=O)O)C(=O)N[C@H](C(=O)N[C@@H](CCN)C(=O)N[C@H](C=O)CC(=O)O)C(C)C)C(C)C  selectivity ratio (Caspase-2 (Homo sapiens, UniProt P42575); baseline: caspase-2 over caspase-3): 27.7 fold
O=C(CC1CCCCC1)NC1CCN(c2ncnc3c2nc(-c2ccccc2Cl)n3-c2ccc(Cl)cc2)CC1  selectivity ratio (CNR1; binding; baseline: Ki CB2 over Ki CB1): 1200
CCOC(=O)c1c(C)oc2cc(OC)c(OCc3oc4cc(OC)c(OS(=O)(=O)O)cc4c3C(=O)OCC)cc12  inhibition (Prothrombin (F2, Homo sapiens, UniProt P00734); enzyme activity; concentration not given): 75 ± 1%
CC(=O)NCCCC[C@H](NC(=O)CNC(=O)[C@H](CC(C)C)NC(C)=O)C(=O)Nc1ccc2c(C)cc(=O)oc2c1  Km (Histone deacetylase 1 (HDAC1, Homo sapiens, UniProt Q13547); substrate): 6 µM
CS(=O)(=O)NC1CCN(c2ncnc3c2nc(-c2ccccc2Cl)n3-c2ccc(Cl)cc2)CC1  Ke (CNR1; antagonist): 71 nM
Cc1cc(C)cc(Nc2nccc(-c3c(-c4ccc(F)cc4)ncn3C3CCNCC3)n2)c1  inhibition (Protein polybromo-1, BD5 (PBRM1, Homo sapiens, UniProt Q86U86); concentration not given): > 35%
CCCCC(=O)NC1CCN(c2ncnc3c2nc(-c2ccccc2Cl)n3-c2ccc(Cl)cc2)CC1  Ke (CNR1; antagonist): 5 nM
COc1cc2c(ccc3cc(O)c(OC)c(OC)c32)cc1O  IC50 (CDK4/6; kinase activity, inhibitor): 29 µM
CC(=O)N[C@@H](CC(C)C)C(=O)NCC(=O)N[C@@H](CCCCNC(=O)C(F)(F)F)C(=O)Nc1ccc2c(C)cc(=O)oc2c1  Km (Histone deacetylase 9 (HDAC9, Homo sapiens, UniProt Q9UKV0); substrate): 37 µM

Some of these lines once more:
Cc1cc(C)cc(Nc2nccc(-c3c(-c4ccc(F)cc4)ncn3C3CCNCC3)n2)c1  inhibition (Protein polybromo-1, BD5 (PBRM1, Homo sapiens, UniProt Q86U86); concentration not given): > 35%
CCCCC(=O)NC1CCN(c2ncnc3c2nc(-c2ccccc2Cl)n3-c2ccc(Cl)cc2)CC1  Ke (CNR1; antagonist): 5 nM
